{"data": "Assay results of several laboratories", "note": "Lines come from different studies, so protocols differ. Several values in a cell are separate wells, animals, samples, runs or records. ± gives the spread as reported."}
{"SMILES": "C=CCN1CCC23c4c5ccc(OC(=O)c6ccc(NC(=O)OC(C)(C)C)cc6)c4OC2C(=O)CCC3(O)C1C5 (stereo not drawn)", "system": "rat plasma", "conditions": "0 h, added: digitonin 100 µM", "remaining compound": "95.5% and 100% and 104%"}
{"SMILES": "Cc1cc(-c2ccc3ccccc3c2)nnc1NCCN1CCN(C)CC1", "system": "human liver microsomes", "conditions": "10 min", "remaining compound": "102%"}
{"SMILES": "O=c1[nH]c2ccccc2c(=O)o1", "system": "HEPES buffer", "conditions": "20 h, pH 7.4", "remaining compound": "0%"}
{"SMILES": "C[C@H](NCc1ccc(-c2ccc(C(F)(F)F)cc2)cc1)C(N)=O", "system": "rat plasma", "conditions": "1 µM, 120 min", "remaining compound": "95%"}
{"SMILES": "C/C(=N\\OCCCN1CCCCC1)c1ccc(C(F)(F)F)cc1", "system": "human liver microsomes", "conditions": "30 min", "remaining compound": "85.2%"}
{"SMILES": "NC1CCN(C(=O)Oc2ccc(C3CCCC4(C3)OOC3(O4)C4CC5CC(C4)CC3C5)cc2)CC1 (racemic)", "system": "citrate buffer anaerobic", "conditions": "2 h, added: ferrous ammonium sulfate 50 mM", "remaining compound": "83%"}
{"SMILES": "N[C@@H](Cc1ccc(O)cc1)C(=O)N[C@@H]1CSCc2ccccc2CSC[C@@H](NC(=O)[C@@H](N)Cc2ccc(O)cc2)C(=O)NCC(=O)N[C@@H](Cc2ccc(F)cc2)C(=O)NNC(=O)[C@H](Cc2ccc(F)cc2)NC(=O)CNC1=O", "test": "LC-MS", "system": "human plasma", "conditions": "5 µM, 1 h, 37 °C", "remaining compound": "95.4%"}
{"SMILES": "C=CCN1CCC23c4c5ccc(OC(=O)c6ccc(N)cc6)c4OC2C(=O)CCC3(O)C1C5 (stereo not drawn)", "system": "rat plasma", "conditions": "1 h, added: digitonin 100 µM", "remaining compound": "0.3% and 0.271%"}
{"SMILES": "CC(C)=CCC/C(C)=C\\CCn1cc(CC(P(=O)(O)O)P(=O)(O)O)nn1", "system": "mouse plasma", "conditions": "4 h, 37 °C, equilibrium dialysis stability", "remaining compound": "110 ± 6.3%"}
{"SMILES": "C=CCN1CCC23c4c5ccc(OC(=O)c6ccccc6)c4OC2C(=O)CCC3(O)C1C5 (stereo not drawn)", "system": "rat plasma", "conditions": "0.5 h, added: digitonin 100 µM", "remaining compound": "0%"}
{"SMILES": "Cc1nnc(-c2ccc(CC(=O)NCCCC[C@H](NC(=O)c3ccc(OCc4ccc(B(O)O)cc4)c(-c4nc5ccccc5c(=O)[nH]4)c3)C(=O)NCC(=O)NCC(=O)NCC(=O)N[C@@H](Cc3ccccc3)C(=O)N[C@@H](Cc3ccccc3)C(=O)O)cc2)nn1", "test": "UPLC-MS/MS", "system": "human serum", "conditions": "100 µM, 2.5 h, 37 °C", "remaining compound": "89.3% and 85.5%"}
{"SMILES": "CCN(CC)CCOc1ccc(-c2nnn(Cc3ccc(OC)cc3)c2N)cc1", "system": "monkey plasma", "conditions": "120 min", "remaining compound": "125%"}
{"SMILES": "COc1cc2c(cc1NC(=O)c1cncn1C)C[C@H]1[C@H]3CCCC[C@@]23CCN1C", "system": "human plasma, 50% in PBS", "conditions": "5 µM, 1 h, 37 °C", "remaining compound": "104%"}
{"SMILES": "C[C@@H](Oc1ccc2c(c1)[C@H]1CCN[C@@]1(C)CO2)c1ccccc1", "test": "HPLC", "system": "DPBS", "conditions": "10 µM, 4 h, 37 °C, added: CellROX Green 5 µM and tBHP 55 µM", "remaining compound": "97%"}
{"SMILES": "O=C(O)c1ccc(-c2nc(-c3ccccc3Cl)c3sccn23)cc1", "system": "human liver microsomes", "conditions": "1 µM, 30 min", "remaining compound": "69.6%"}
{"note": "Repeated from above:"}
{"SMILES": "C/C(=N\\OCCCN1CCCCC1)c1ccc(C(F)(F)F)cc1", "system": "human liver microsomes", "conditions": "30 min", "remaining compound": "85.2%"}
{"SMILES": "NC1CCN(C(=O)Oc2ccc(C3CCCC4(C3)OOC3(O4)C4CC5CC(C4)CC3C5)cc2)CC1 (racemic)", "system": "citrate buffer anaerobic", "conditions": "2 h, added: ferrous ammonium sulfate 50 mM", "remaining compound": "83%"}
